Experimental data of several laboratories.
A part holds a random share of what one study measured. “And” joins repeats or separate records; there may be more than shown.
UniProt Q15418, sequence (whole entry, looked up): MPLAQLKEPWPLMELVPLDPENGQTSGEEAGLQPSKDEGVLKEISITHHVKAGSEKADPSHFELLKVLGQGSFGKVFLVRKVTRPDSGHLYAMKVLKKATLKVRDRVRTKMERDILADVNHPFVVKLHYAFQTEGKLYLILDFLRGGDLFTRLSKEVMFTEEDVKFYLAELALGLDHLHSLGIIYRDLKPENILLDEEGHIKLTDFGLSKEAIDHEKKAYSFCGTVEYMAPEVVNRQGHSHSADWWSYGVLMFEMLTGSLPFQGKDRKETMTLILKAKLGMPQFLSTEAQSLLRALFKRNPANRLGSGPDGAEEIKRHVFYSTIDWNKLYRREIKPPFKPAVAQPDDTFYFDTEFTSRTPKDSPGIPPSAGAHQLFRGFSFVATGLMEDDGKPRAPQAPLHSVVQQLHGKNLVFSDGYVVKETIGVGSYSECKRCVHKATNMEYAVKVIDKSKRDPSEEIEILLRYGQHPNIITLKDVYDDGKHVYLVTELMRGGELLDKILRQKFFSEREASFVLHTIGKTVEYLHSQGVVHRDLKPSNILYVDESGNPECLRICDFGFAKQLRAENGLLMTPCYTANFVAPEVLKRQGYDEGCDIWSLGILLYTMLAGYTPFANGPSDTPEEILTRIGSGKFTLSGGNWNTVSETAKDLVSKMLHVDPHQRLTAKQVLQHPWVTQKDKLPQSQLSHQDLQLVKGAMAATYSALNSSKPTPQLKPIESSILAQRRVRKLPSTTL
UniProt P60842, sequence (whole entry, looked up): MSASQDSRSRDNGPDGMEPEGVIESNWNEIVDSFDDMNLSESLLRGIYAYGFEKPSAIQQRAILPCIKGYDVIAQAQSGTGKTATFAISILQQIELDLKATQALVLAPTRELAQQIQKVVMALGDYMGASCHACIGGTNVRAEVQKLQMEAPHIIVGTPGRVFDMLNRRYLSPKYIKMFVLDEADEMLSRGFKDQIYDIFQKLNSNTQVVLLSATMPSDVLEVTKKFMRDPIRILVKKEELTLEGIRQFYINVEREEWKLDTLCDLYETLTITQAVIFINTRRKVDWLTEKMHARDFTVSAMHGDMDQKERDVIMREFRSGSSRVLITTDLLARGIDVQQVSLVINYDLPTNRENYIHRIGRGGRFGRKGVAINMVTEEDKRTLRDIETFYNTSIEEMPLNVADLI
UniProt P9WI81, sequence (whole entry, looked up): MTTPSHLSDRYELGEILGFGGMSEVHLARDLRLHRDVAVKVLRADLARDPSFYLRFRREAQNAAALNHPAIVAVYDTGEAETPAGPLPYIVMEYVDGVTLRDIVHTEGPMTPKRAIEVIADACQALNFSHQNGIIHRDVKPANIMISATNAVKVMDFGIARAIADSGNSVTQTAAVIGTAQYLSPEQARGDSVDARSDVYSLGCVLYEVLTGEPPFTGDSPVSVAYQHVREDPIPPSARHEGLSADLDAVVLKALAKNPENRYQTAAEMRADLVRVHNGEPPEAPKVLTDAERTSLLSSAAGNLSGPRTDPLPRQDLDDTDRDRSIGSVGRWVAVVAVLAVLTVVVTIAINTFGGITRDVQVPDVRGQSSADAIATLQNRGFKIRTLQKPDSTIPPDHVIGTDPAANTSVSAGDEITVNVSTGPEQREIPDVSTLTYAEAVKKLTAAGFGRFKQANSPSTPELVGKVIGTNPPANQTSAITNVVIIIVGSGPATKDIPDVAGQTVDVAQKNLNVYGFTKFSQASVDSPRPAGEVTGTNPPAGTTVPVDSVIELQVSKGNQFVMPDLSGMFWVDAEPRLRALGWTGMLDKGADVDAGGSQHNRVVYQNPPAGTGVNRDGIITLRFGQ
UniProt P61075, sequence (whole entry, looked up): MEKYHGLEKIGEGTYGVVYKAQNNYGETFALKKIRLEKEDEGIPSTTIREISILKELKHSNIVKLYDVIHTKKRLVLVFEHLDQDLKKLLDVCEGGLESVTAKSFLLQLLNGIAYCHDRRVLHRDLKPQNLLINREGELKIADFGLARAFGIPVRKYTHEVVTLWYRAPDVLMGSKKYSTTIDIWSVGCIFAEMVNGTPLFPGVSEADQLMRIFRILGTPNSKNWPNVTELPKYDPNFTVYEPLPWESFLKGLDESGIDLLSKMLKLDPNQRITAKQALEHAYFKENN

Study 1
Host: human
Medium: microsomes or S9
Concentration: 2 µM
Time: 0.5 h
Structure (SMILES) | remaining compound [%]
O=C1N=C(O)C(CCc2ccncc2)(Cc2ccc(OCc3ccccc3)cc2)C(=O)N1 (stereo not shown) | 21.8
CC(C)CCC1(CN2CCCC2=O)C(=O)NC(=O)NC1=O | 93.9
O=S(=O)(CC1C(c2ccccc2)N1c1ccccc1)c1ccccc1 (stereo not shown) | 7.64

Study 2
Target: DNA polymerase theta, ATPase domain (POLQ, Homo sapiens, UniProt O75417)
UniProt O75417, sequence (whole entry, unmodified, looked up): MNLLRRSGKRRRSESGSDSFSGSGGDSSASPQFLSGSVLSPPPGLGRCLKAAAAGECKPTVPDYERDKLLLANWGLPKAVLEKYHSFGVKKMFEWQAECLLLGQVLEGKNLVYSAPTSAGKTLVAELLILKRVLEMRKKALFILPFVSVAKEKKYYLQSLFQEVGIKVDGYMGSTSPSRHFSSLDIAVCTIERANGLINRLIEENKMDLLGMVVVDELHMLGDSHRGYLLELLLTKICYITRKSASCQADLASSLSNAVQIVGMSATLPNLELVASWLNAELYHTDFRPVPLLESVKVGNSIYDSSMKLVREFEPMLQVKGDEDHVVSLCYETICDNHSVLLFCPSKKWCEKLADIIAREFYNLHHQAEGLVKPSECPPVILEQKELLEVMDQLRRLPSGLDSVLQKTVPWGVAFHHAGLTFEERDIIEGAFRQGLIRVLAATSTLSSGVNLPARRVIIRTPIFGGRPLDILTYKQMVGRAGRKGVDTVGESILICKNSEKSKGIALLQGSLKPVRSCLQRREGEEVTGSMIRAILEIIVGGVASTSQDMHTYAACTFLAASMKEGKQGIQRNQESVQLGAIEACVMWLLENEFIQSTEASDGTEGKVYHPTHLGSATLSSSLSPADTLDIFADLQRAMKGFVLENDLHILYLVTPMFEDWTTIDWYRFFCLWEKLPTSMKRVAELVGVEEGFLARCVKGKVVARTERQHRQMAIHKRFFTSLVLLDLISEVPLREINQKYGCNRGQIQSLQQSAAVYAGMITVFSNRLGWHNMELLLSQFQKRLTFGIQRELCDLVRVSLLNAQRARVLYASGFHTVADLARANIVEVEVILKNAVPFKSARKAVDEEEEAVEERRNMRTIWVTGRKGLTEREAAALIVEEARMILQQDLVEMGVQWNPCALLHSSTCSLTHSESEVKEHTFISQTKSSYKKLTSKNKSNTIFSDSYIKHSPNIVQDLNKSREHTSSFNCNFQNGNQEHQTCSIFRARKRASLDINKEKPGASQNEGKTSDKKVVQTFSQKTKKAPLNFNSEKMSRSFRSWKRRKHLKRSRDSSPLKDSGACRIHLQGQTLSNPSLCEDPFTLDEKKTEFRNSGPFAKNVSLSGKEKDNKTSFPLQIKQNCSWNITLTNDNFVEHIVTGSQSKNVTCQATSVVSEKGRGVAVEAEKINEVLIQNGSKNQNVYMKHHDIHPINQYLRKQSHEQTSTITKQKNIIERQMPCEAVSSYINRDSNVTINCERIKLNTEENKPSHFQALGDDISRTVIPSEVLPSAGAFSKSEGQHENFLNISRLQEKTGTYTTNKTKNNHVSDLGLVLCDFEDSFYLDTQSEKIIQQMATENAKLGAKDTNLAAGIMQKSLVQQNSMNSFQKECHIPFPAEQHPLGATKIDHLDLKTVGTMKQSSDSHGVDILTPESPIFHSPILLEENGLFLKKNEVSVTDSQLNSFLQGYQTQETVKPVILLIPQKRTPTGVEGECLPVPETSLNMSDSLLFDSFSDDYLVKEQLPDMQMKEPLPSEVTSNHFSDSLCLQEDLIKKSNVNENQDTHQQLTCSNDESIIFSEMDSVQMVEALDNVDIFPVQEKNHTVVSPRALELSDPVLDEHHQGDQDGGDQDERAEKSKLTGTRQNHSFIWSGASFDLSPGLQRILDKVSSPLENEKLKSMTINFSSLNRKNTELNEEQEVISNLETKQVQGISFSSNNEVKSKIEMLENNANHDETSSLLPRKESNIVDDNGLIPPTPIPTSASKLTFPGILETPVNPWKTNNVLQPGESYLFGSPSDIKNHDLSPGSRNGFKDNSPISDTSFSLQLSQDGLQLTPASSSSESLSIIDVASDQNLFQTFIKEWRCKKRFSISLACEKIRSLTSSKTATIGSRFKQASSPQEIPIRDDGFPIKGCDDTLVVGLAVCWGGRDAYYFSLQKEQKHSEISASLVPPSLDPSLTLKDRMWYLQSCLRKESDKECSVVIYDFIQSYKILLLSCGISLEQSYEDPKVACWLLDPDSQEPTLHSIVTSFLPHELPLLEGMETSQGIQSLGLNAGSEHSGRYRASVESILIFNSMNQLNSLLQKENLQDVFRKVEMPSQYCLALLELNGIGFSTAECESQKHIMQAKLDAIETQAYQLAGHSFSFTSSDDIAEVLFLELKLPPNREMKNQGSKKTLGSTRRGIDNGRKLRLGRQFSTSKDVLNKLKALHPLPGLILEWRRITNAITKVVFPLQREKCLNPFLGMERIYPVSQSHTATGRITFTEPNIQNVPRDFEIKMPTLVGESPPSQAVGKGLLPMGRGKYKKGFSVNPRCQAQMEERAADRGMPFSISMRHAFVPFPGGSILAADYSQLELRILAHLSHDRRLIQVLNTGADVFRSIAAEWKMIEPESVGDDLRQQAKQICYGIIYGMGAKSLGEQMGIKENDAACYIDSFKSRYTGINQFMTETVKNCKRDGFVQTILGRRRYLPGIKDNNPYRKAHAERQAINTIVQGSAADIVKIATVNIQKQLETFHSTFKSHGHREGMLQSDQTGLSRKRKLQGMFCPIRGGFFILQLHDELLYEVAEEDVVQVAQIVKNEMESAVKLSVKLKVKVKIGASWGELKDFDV
Observed: enzyme activity
Action: inhibitor
Concentration: 77 µM
Baseline: untreated
SMILES | remaining activity
O=C(O)c1nn(Cc2ccc(Cl)cc2Cl)c2ccccc12 | 95% and 92.6%
C[N+]1(C)CCO[C@@](O)(c2ccc(-c3ccc([C@@]4(O)C[N+](C)(C)CCO4)cc3)cc2)C1 | 115%
O=C(O)Cc1cnc[nH]1 | 105%

Further values, each from its own experiment
Structure (SMILES) | target | test | setting | how to read | endpoint | result
CCOC(=O)c1cc2cc(-c3cc(C(=O)NCc4ccc(C(=O)O)cc4)nn3C)ccc2[nH]1 | CRK2 (Plasmodium falciparum, UniProt P61075) | cell-free assay, competition with immobilised ligand | 0.1 µM | – | remaining binding | 65%
CN[C@@H]1C[C@H]2O[C@@](C)([C@@H]1OC)n1c3ccccc3c3c4c(c5c6ccccc6n2c5c31)C(=O)NC4 | RPS6KA1 (Homo sapiens, UniProt Q15418) | enzyme activity, inhibitor | 0.5 µM | baseline: control | remaining activity | 3.52% and 0.432%
O=C(O)[C@@H]1[C@@H](Cn2nnc3ccccc3c2=O)CC[C@H]1C(=O)c1ccc(OCCC2CCOCC2)cc1 | pknB (Mycobacterium tuberculosis, UniProt P9WI81) | cell-free assay, competition with immobilised ligand | 1 µM | – | remaining binding | 94%
COC(=O)[C@H]1[C@H](c2ccccc2)[C@]2(c3ccc(OC)cc3)Oc3cc(OC)cc(OC)c3[C@@]1(O)C2O (stereo partly shown) | EIF4A1 (Homo sapiens, UniProt P60842) | RNA clamping, fluorescence polarization | concentration not given, with: FAM-labelled poly r(AG)8 RNA | higher = more clamping | fluorescence polarization change | 0.1 mP

A few entries again (further values, each from its own experiment):
Structure (SMILES) | target | test | setting | how to read | endpoint | result
COC(=O)[C@H]1[C@H](c2ccccc2)[C@]2(c3ccc(OC)cc3)Oc3cc(OC)cc(OC)c3[C@@]1(O)C2O (stereo partly shown) | EIF4A1 (Homo sapiens, UniProt P60842) | RNA clamping, fluorescence polarization | concentration not given, with: FAM-labelled poly r(AG)8 RNA | higher = more clamping | fluorescence polarization change | 0.1 mP
